Results of several laboratories.
Each numbered part is a random draw from the data of one study; scales do not carry over between parts.
Sequence of UniProt P62344 (whole entry, looked up): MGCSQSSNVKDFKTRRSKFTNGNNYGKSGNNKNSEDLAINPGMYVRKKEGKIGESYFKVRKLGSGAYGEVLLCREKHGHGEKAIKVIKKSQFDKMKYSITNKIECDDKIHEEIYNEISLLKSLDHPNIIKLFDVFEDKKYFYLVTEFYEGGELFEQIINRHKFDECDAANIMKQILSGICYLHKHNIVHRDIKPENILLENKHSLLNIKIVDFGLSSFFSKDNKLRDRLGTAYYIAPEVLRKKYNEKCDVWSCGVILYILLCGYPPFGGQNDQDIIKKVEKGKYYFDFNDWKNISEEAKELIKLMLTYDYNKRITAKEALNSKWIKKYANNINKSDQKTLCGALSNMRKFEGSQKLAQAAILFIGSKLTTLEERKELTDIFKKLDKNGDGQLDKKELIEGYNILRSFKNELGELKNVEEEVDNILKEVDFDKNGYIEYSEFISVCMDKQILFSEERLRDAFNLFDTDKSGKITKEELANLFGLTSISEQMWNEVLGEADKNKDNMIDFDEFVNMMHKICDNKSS

Set 1 — method: Spec-seq; form: double-stranded DNA, one strand shown; matrix: in vitro; concentration: not given; notes: whole probe, mean of replicates; reference: not given; reading: lower = stronger binding; shared flanks, not repeated: GAGTCGTCTCGTCAGCAC … CCGTAGAGCACTCAGGTC
Target: Transcription factor SOX-2, HMG box (Sox2, Mus musculus, UniProt P48432, residues 41-119)
Sequence of UniProt P48432 (41-119, looked up): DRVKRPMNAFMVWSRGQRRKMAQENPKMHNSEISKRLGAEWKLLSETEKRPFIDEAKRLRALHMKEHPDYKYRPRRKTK
Oligonucleotide | relative binding energy
CTGTGTT | -0.373 ln ratio
CATAGCG | -0.309 ln ratio
TTTTGTT | -2.58 ln ratio
CTACGTT | 1.01 ln ratio
TATTGTT | -2.68 ln ratio
GCTGGTT | 0.915 ln ratio
TCGTGTT | 0.592 ln ratio
CATGACA | 0.286 ln ratio

Set 2 — observed: peptide-MHC binding; form: peptide; concentration: concentration not given
Target: HLA class I histocompatibility antigen, C alpha chain, allele C*04:01 (Homo sapiens, UniProt P10321)
Molecule | binding
GFYLSGHLF | inactive
FQILHDRFF | inactive
MLYPLLWMF | inactive

Set 3 — method: protein binding microarray; form: double-stranded DNA, one strand shown; matrix: in vitro; concentration: not given; reference: not given; reading: higher = stronger binding
Target: Histone acetyltransferase KAT6A, winged helix 2, GST fusion (KAT6A, Homo sapiens, UniProt Q92794, residues 85-181)
Notes: 8-mer, flanks averaged, mean of 2 arrays, mostly near background
Construct (chain): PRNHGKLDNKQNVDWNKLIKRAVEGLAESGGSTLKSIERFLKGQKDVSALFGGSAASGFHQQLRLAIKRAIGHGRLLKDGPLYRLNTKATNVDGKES
Oligonucleotide | E-score
ACCTCCCG | 0.0227
CCAGAGAA | 0.000825
CCGTCCGC | -0.0444
CTTTAGCA | 0.157
CCTGGATA | 0.00763
AACCTACG | -0.00086
AACGGCTC | -0.0365
CGTTGGAG | 0.0786

Single results of other studies
Compound | target | test | conditions | measurement | value
O=C(O)[C@H]1[C@H](Cn2nnc3ccccc3c2=O)CC[C@@H]1C(=O)c1ccc(OCCC2CCOCC2)cc1 | Calcium-dependent protein kinase 1 (CDPK1, Plasmodium falciparum, UniProt P62344) | cell-free assay, competition with immobilised ligand | 1 µM | remaining binding | 100%

Some of these lines once more (set 1):
Oligonucleotide | relative binding energy
CTACGTT | 1.01 ln ratio
TATTGTT | -2.68 ln ratio
GCTGGTT | 0.915 ln ratio
